# Measured values pooled from the literature.
# Numbered parts are unrelated; each lists some results of a single study. Positions count from the first letter of the parent shown.

# Set 1 — target: CCNF, cyclin fold, Cln2 fusion (human); method: yeast growth competition, sequencing; matrix: yeast; setting: strong parent motif; relative to: not given; reading: higher = stronger binding
# Starting sequence: MICAL3 docking peptide (human); LQLRRQLSFSEDS
Substitution,normalised enrichment score
LQLRRQLSESEDS [F9E],-0.168
LQLRRQLSFGEDS [S10G],6.48
LQLRRQLCFSEDS [S8C],7.59
LQLRHQLSFSEDS [R5H],0.0473
LQLRRQLSFSTDS [E11T],5.48
LQCRRQLSFSEDS [L3C],7
LQLRRQLSFEEDS [S10E],5.04
LQLRRSLSFSEDS [Q6S],3.77
LQLRRQQSFSEDS [L7Q],0.205
LQLKRQLSFSEDS [R4K],3.01
LWLRRQLSFSEDS [Q2W],4.36
LQLRRQLSFSYDS [E11Y],6.1
LQLRRQLSFSVDS [E11V],6
LQLRRQLSFQEDS [S10Q],5.02
LQLRRQLYFSEDS [S8Y],7.78
LQLRRQLWFSEDS [S8W],7.8
LALRRQLSFSEDS [Q2A],5.28
LQLRLQLSFSEDS [R5L],0.479
LQLRRQLSFSHDS [E11H],4.98
LQLYRQLSFSEDS [R4Y],2.1
LVLRRQLSFSEDS [Q2V],4.49
LSLRRQLSFSEDS [Q2S],6.15
LQLRRTLSFSEDS [Q6T],3.42
LQLRKQLSFSEDS [R5K],1.41
LCLRRQLSFSEDS [Q2C],5.39

# Set 2 — method: RNA Bind-n-Seq; form: RNA; matrix: in vitro; concentration: not given; relative to: input RNA pool; reading: higher = stronger binding
# Target: RING finger protein unkempt homolog, zinc fingers 1-6, GST-SBP tag (UNK, Homo sapiens, UniProt Q9C0B0, residues 30-357)
# Setting: RNA with constant flanks, human and mouse sites, ends assumed
# Target sequence (chain): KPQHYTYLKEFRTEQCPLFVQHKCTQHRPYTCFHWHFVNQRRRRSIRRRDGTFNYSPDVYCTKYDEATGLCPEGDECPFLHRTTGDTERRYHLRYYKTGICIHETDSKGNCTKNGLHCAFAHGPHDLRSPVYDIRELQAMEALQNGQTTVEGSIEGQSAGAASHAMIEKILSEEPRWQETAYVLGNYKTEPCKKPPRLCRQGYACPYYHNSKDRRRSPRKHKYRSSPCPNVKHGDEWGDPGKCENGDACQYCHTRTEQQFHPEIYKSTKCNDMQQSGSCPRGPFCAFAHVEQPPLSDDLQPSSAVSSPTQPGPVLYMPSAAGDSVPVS
Oligonucleotide,bound/input enrichment [ratio]
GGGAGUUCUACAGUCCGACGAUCGUGACUCAAGCUGCACCACCCACACCUACUCCUCCAGUGCCCCCAGCAAAAAAGCAGCCAGCUUUCCCUGCUUCUUACAUUCCACCCUCUCCCCCUACCCCUCCUGUUCCAGUACCCCCGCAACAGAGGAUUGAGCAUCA,0.724
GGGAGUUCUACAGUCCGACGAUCAGAAAUGGGCCGCUCCAAUUCUAGAUCACAUUCUUCAAGAUCCAAGUCUAGAUCACAGUCUAGUUCUAGAUCAAGAUCAAGAUCACAUUCUAGAAAGAAGAGAUACAGUUCUAGGUCUCGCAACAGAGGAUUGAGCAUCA,0.179
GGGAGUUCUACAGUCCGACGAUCCCCCCUUUCCCCGGUCCCAGGCUCUCCUUCGGAAAGAUGUCGGACACGGCAGUAGCUGAUACCCGGCGCCUUAACUCGAAGCCGCAGGACCUGACCGACGCUUACGGGCCGCCAAGUAACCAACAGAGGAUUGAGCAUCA,0.145
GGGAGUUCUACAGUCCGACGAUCCUCCAGAAAGAAAACAAAAUUAAUGCCUUGCAUCCUGGAAGUUCAUUUAGGAAUCUGAAAUUAGGGACUUCUUUAAAAUUUGGACAUGGCUAAUCGAGGAGCAACAAGACCCAACGGGCCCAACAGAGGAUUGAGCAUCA,0.927
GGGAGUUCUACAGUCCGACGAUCAGAUGCAGAGAAAGGGACUCAGAUGAUACUUGUAGGCAGCAUAAUACGUCAAAAAGUCCAUUUAGGGAAAUGGAACCUUUGUUGUCACCACACCAUGAUAAACUCAUGUCUUUGCCAGUUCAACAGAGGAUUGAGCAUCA,0.257
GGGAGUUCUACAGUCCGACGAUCUGUCAGCUGAGAGGCUUAUACUAAAGUUAUUAUUGUUUUUCCCAAGUUCUCUGUUCUGGAUUUUCAGUUGCAUAUUAAUGUAACGGGCCAUGGGGUAUGUACAUGUAGGGGCUGAGGUUGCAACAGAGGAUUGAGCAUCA,0.313
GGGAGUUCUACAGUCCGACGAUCUAUUUCCCACUGUGUGUCGACCUUAGGAGCCACUGGAGGAGAGAGCACUUUCGUAGAUCACCAGUGGGAAAGCAGUUUUUAAACAACGGAUAUACCCCCUGUUAGCUGUGUAGUCGGAUACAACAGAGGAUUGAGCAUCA,0.736
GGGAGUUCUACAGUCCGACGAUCUGACUCUGCUCUGACCCCCACCAGUGCCGCACAGUCUGGAAUAAAAGCAGAAGCAUGGUGAAGCUGAACAGCAACCCUGGAGAGAAGGGGGCCAAGCCGCCUUCCGUGGAGGAUGGUUUCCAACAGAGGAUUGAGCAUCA,0.117
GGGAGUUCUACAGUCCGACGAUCCCCUUACCCCCGCCCCUUCCCUCUUCCUCCCCCAUCAAAACUCCGCUUGUGUCCCCACCCGGCCCACUGACCAAAGGGAACCUCCCGGUGGUUGCACCCCCCGUCCCCUGUGCGCCACCACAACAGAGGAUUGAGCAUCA,1.32
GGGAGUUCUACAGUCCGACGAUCUCCCAGACAAAUGAAAGCUACUUUCCUUUUGACGAUGAACUUACACAAGAUAGCAUUGUGGAAGAGCUGGUACUUAUGGAGCAGCAGAUGUCAAUGAAUAAUUCACAUUCUUAUGGUAACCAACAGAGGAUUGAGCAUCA,0.0801
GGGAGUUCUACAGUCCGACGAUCUCCAGUCCAAGGGAAGAGGAGAUCCCGCCCCUCUUUUGGGGUCUGGAUCCUGUGUUUCUAGCCUUUGCAAAACUCUACAUCAAGGAUAUCCUGGAGAUGAAGGAGUCCCAACAAGUGCCACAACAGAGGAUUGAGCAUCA,0.0815

# Set 3 — method: RNAcompete; form: RNA; matrix: in vitro; concentration: 20 nM; setting: 7-mer, probes averaged, single round; relative to: mean of 7-mers; reading: higher = stronger binding
# Target: PABPC1L2, full length, GST fusion (mouse, UniProt A0ABA7IW68)
# Construct (chain): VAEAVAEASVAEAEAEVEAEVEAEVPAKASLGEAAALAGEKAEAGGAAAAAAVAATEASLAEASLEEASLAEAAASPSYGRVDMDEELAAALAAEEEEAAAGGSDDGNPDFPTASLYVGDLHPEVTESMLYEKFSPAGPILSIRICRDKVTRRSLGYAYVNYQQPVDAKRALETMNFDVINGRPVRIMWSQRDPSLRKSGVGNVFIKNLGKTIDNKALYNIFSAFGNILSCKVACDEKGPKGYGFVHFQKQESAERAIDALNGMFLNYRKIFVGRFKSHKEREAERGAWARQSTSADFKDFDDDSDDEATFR
Oligonucleotide,7-mer Z-score
AGUAGCU,-0.193
CUCCUGC,-0.354
UUGGUAC,-0.128
UUCUUCU,-0.447
CUCUAAU,-0.22
CGAAUAA,0.635
AGGUAAA,0.762
CCGCGAC,-0.15
GGGUGGU,-0.00289
AUAGCGG,-0.119
AACUGUA,0.153
UAAGUCU,-0.289
ACCGACU,-0.121
AAAAUGG,5.55
CAGUCAC,0.0642
CGACAGG,-0.0935
UACAUGA,-0.0174
GUCUAAC,-0.347
AUCCAGU,-0.17
CGGUGUG,-0.0428
GGCUUGG,0.0533
GAGGCAC,0.14
GCGAUGA,-0.0609
GGUUUCC,-0.378
UGAGUAG,-0.246

# Set 4 — method: RNA Bind-n-Seq; form: RNA; matrix: in vitro; concentration: 20 nM; setting: 6-mer, flanks averaged, single round; added: 150 mM KCl; relative to: input library; reading: higher = stronger binding
# Target: TAR DNA-binding protein 43, full length, His tag (TARDBP, Homo sapiens, UniProt Q13148, residues 1-414)
Oligonucleotide,6-mer enrichment (R)
AUCUGG,0.86
ACUCUG,0.624
GGCUUU,0.84
GCCGAC,0.929
AAAUUA,0.643
CCUGAU,0.606
GCUGGC,1.38
CAGUUG,0.798
AAUUCA,0.592
ACCAUG,0.702
GGUGCC,1.38
UUCGCU,0.556
AAGGUC,0.698
UGGGCC,1.92
AUACUU,0.574
AGCACA,0.717
GGGACC,2.05
UGCUAG,0.878
CGGUUC,0.689
AACGCC,0.634
CCGUCA,0.62
UUUACU,0.593
UAAAAC,0.624
CCGUAG,0.793
CGUCGA,0.826

# Set 5 — method: protein binding microarray; form: double-stranded DNA, one strand shown; matrix: in vitro; concentration: not given; relative to: not given; reading: higher = stronger binding
# Target: Histone acetyltransferase KAT6A, both winged helices, GST fusion (KAT6A, Homo sapiens, UniProt Q92794, residues 1-181)
# Setting: 8-mer, flanks averaged, mean of 2 arrays, mostly near background
# Target sequence (chain): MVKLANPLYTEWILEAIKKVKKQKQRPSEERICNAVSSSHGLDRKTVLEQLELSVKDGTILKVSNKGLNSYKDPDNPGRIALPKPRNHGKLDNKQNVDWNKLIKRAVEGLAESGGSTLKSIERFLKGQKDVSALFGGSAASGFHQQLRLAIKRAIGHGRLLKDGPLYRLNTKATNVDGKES
Oligonucleotide,E-score
GGTGGCAA,-0.215
CGAGCCAG,-0.00785
AGACAGCT,-0.186
GAGTATAC,0.017
CTGACCAG,-0.0549
CCAACAAG,-0.274
CGGAACCC,0.24
AACGCGTG,0.347
AAGGGCTC,-0.111
AAGTTCAG,-0.195
AGCTCTGA,-0.101
GTCTATCA,-0.0501
CTATGTAA,-0.116
AACTCGTG,-0.00293
GAAGTTAA,-0.071
CTTTCCCA,-0.15

# Some of these lines once more (set 4):
Oligonucleotide,6-mer enrichment (R)
GGUGCC,1.38
GGGACC,2.05
AAAUUA,0.643
AACGCC,0.634
ACCAUG,0.702
GCUGGC,1.38
CCUGAU,0.606
CGGUUC,0.689
UUUACU,0.593
CCGUCA,0.62
CGUCGA,0.826
UGCUAG,0.878
